Experimental data of several laboratories.
Compare with care: the assays were run in different laboratories. “And” joins repeats or separate records; there may be more than shown. ± marks the error that the study gave.

Structure (SMILES) | cell line | test | setting | scale | endpoint | value
COC(=O)c1cc(NC2=NC(=O)C(=Cc3ccc(C)cc3)S2)ccc1OC(C)=O | MCF7 | GC-MS, item: L-Glutamic acid | 1 µM | reference: DMSO | metabolite level | -0.44 fold change
Cc1cc(C)nc(NC(=S)N2CCN(c3ccc(C(F)(F)F)cn3)CC2)c1 | MDA-MB-468 | isotope labelling | 10 µM, 4 h, with: U-13C-glucose | – | M+3 serine pool | decreased
CCOc1cncc(-c2ccc(NC(=O)C3(c4ccnc(NS(=O)(=O)C5CC5)n4)CCOCC3)nc2)n1 | Fu97 | cell proliferation, CellTiter-Glo | 72 h, Gastric cancer | – | IC50 | 10000 nM
O=C(O)C1OC(Oc2c(-c3ccc(O)cc3)oc3cc(O)ccc3c2=O)C(O)C(O)C1O (centres unmarked) | MDCKII-UGT1A1/MRP2 cells | glucuronide efflux, substrate | – | – | Jmax | 4.8 ± 1.4 pmol/mg/min
c1ccc2c(Cc3[nH]c4ccccc4c3Cc3c[nH]c4ccccc34)c[nH]c2c1 | human monocytes | – | 5 µM | reference: DMSO | IL-6 induction | increased
COC(=O)c1cc(NC2=NC(=O)C(=Cc3ccc(N(C)C)cc3)S2)ccc1OC(C)=O | MCF7 | item: UBE2N mRNA | 0.81 µM (IC50), 24 h | reference: DMSO | fold change | 0.369
O=C(C[Se]C(=O)c1cc2ccccc2[nH]1)Nc1cccc(C(F)(F)F)c1 | NCI60 colon subpanel | NCI60 five-dose screen | – | – | mean TGI | 6450 nM
Cn1ncc2cc(-c3cncc(Cl)c3N3CCC4(CCNC4=O)CC3)ccc21 | LS174T | gene expression, microarray, item: G0S2 mRNA | concentration not given, 4 h | reference: untreated cells | log2 fold change | -1.06
CSC(=S)N/N=C(\C)c1ccc(Nc2nnc(-c3ccc(Cl)cc3)c3ccccc23)cc1 | HepG2 | cell growth or viability, MTT | 0.156 µM | – | cell death | 48.7%
COc1ccc2c(c1)c(CC(=O)[Se]CC(=O)Nc1cccc(C(F)(F)F)c1)c(C)n2C(=O)c1ccc(Cl)cc1 | NCI60 colon subpanel | cell growth | 10 µM, 48 h, one-dose | – | mean growth percent | -55.5%
CNC(=O)CCN(Cc1ccc(C(F)F)cc1)C(=O)c1cc2c(OC)ccc(-c3ccc(=O)n(C)c3)c2s1 | murine AML cells | BRD4 chromatin occupancy, ChIP-seq, item: BRD4 at Cd47 locus | concentration not given, chr16:49789842-49810190 | reference: DMSO, higher = more occupancy | BRD4 ChIP-seq tag count | 157 a.u.
CCN(CC)CC(=O)Nc1cccc(-n2cc(-c3ccc4ccc(-c5cn(-c6cccc(NC(=O)CN(CC)CC)c6)nn5)cc4c3)nn2)c1 | RCC4 | PCR angiogenesis array, item: ANG | 5 x IC50, 6 h, normoxia | reference: untreated | fold regulation | -1.58
CCCCCCc1cccc(C(O)CC(CO)NC(=O)CCCCCCCCCCNC(C)=O)c1 (centres unmarked) | HeLa | CERT activity, HPLC-MS/MS lipidomics, item: hexosylceramide 24:1 | 1 µM, 24 h, not cell-number normalised | – | hexosylceramide level | 12000 pmol/sample and 12400 pmol/sample and 13700 pmol/sample
CC[C@H](C)C(=O)O[C@H]1C[C@@H](C)C=C2C=C[C@H](C)[C@H](CC[C@@H]3CC=CC(=O)O3)[C@H]21 | T84 | western blot, item: CFTR | concentration not given, 2 h | – | protein level | no effect
O=C(C[Se]C(=O)c1ccccc1Nc1cccc(C(F)(F)F)c1)Nc1cccc(C(F)(F)F)c1 | NCI60 colon subpanel | NCI60 five-dose screen | – | – | mean TGI | 10600 nM
C#CCCCC(O)/C=C/C(=O)NC1(c2ccc(-c3nc4ccn5c(=O)[nH]nc5c4cc3-c3ccccc3)cc2)CCC1 (centres unmarked) | MDA-MB-468 | flow cytometry PI | EC60, 72 h | – | sub-G0 cells | 1.3%
CN1CCCNC(=O)c2cccc(c2)C(=O)NCCCN(C)CCCNc2cccc3c2C(=O)c2cccc(c2C3=O)NCCC1 | SAS | RNA-Seq, item: MBOAT2 mRNA | 1 µM, 6 h | reference: untreated cells | log2 fold change | -1.01
CCCCCCCCCCCCCCCC(=O)OCC(CSC[C@H](N)C(=O)N[C@@H](CO)C(=O)N[C@@H](CCCCN)C(=O)N[C@@H](CCCCN)C(=O)N[C@@H](CCCCN)C(=O)N[C@@H](CCCCN)C(=O)NCCCCCC(=O)N[C@@H](CCCCN)C(=O)N[C@@H](CC(C)C)C(=O)N[C@H](C(=O)N[C@@H](Cc1ccccc1)C(=O)N[C@@H](Cc1ccccc1)C(=O)N[C@@H](Cc1ccc2ccccc2c1)C(=O)O)C(C)C)OC(=O)CCCCCCCCCCCCCCC (some centres unmarked) | BV-2 | RNA-seq, item: Cd86 | – | – | gene expression | 53.2 FPKM and 57.9 FPKM and 57.3 FPKM

Structure (SMILES) | cell line | test | setting | scale | endpoint | value
CNS(=O)(=O)Nc1nccc(Cc2c(C)c3ccc(Oc4ncccc4F)cc3oc2=O)c1F | SK-LU-1 | cell viability | 7 days | – | IC50 | 359 nM
COc1cc(/C=C/C(=O)/C=C(O)/C=C/c2ccc(OCC(=O)N3CCOCCOCCOCC3)c(OC)c2)ccc1OCC(=O)N1CCOCCOCCOCC1 | SK-LU-1 | cell growth or viability, SRB | 25 µM | – | inhibition | 81.5%
CN(C)CCN1CCN(c2ccc3nc(-c4ccc5nc(-c6ccc(C(F)(F)F)cc6)[nH]c5c4)[nH]c3c2)CC1 | UO-31 | SRB | 10 µM, 48 h | – | growth percent | 131%
C[C@@H]1Cc2c([nH]c3ccccc23)[C@@H](c2c(F)cc(/C=C/C(=O)O)cc2F)N1C12CC(C1)C2 | MCF7 | RNA-seq, item: STON1 mRNA | 1 µM, 24 h, E2-suppressed gene | reference: DMSO vehicle | log2 fold change | 1.07
C1=[N+]2CCCC[N+]3=Cc4ccc5[n]4[Au-]23[n]2c1ccc2-c1nc2ccccc2nc1-5.F[P-](F)(F)(F)(F)F | Malme-3M | NCI60 five-dose screen | – | – | TGI | 4 -log M
NC(Cc1ccccc1)C(=O)N1CC(=Cc2ccc(Cl)c(Cl)c2)C(=O)C(=Cc2ccc(Cl)c(Cl)c2)C1 (centres unmarked) | BRD4-HiBiT cells | BRD4 degradation rescue, inhibitor | 24 h, 50% degradation rescued, with: dBET6 500 nM | – | EC50 | 161 nM
CCN(C(=O)c1cc(F)ccc1Oc1nncnc1N1CCC2(C1)CN([C@H](CCCN(C)CCOC)C(C)C)C2)C(C)C | T24 | cell growth or viability | 7 days | – | GI50 | > 10000 nM
CC(C)c1ccc(N(C)c2ccc3c(c2)OCC[C@H]3CNc2cnccc2C(=O)O)cc1 | NCI-H2122 | cell growth or viability, ATP luminescence | 7 days | – | IC50 | 23.9 nM
Cc1c(Cl)cccc1Nc1ccccc1C(=O)[Se]CC(=O)Nc1cccc(C(F)(F)F)c1 | NCI60 colon subpanel | NCI60 five-dose screen | – | – | mean TGI | 6860 nM
Cc1ncsc1-c1ccc(C(C)NC(=O)C2CC(O)CN2C(=O)C(NC(=O)CCCCCCCCCCN2CCCC(Nc3ncc(Cl)c(Nc4ccccc4S(=O)(=O)C(C)C)n3)C2)C(C)(C)C)cc1 (centres unmarked) | 22Rv1 | RNA-seq, item: ZC3HC1 mRNA | concentration not given | reference: DMSO | log2 fold change | -1.19
COc1cccc(OC)c1-c1cc(C(=O)NC2(C(=O)O)C3CC4CC(C3)CC2C4)nn1-c1ccc(C(=O)N(C)CCCN(C)C(=O)[C@H](CCCCNC(=O)[C@H](CC(C)C)NC(=O)C2OC2C(=O)O)NC(=O)CN2CCN(CC(=O)[O-])CCN(CC(=O)[O-])CCN(CC(=O)[O-])CC2)cc1C(C)C.[177Lu+3] (mixture of isomers) | HT-29 | – | concentration not given, 240 min | reference: added activity | surface-bound fraction | 4.33 ± 0.48%
CN(C)c1ccc(-n2cc(COC(=O)[C@@]3(C)C=C(C(=O)OC(C)(C)C)C(=O)CC3)nn2)cc1 | HeLa | quantitative western blot | concentration not given, 10 (unit not given), with: EGF | – | pERK/ERK ratio | 0.376
CC(C)n1nc(C(F)F)cc1C(=O)Nc1ccc([C@H]2[C@@H](O)CCCc3cncn32)c(-c2ccccc2)c1 | BRD4-HiBiT cells | BRD4 degradation rescue, inhibitor | 4 h, with: dBET6 500 nM | – | EC50 | 173 nM
Cn1ncc(-c2ccc3c(=O)[nH]nc(CN)c3c2)c1-c1c(F)c(Cl)cc(OC2CC2)c1C#N | CMK | cell viability, inhibitor, CellTiter-Glo | 120 h, baseline-subtracted | – | IC50 | 60 nM
CCn1nc(Cl)c2c1-c1cnc(N)c(c1)O[C@H](C)c1cc(F)ccc1-c1nn(C)cc1C2 | Ba/F3 EML4-ALK variant 1 L1196Q | cell viability | – | – | Emax | 99.9%
Cc1cc(Cl)cc(-c2ccnc3cc(CN4C(=O)C5C(C4=O)C5(C)C)sc23)c1C[C@@H]1CNCCO1 (some centres unmarked) | CHP-212 parental (wild-type USP7) | annexin V-PI flow cytometry | 1 µM, 48 h | – | early apoptotic cells (annexin V+/PI-) | 32.2% and 23.7% and 26.6%
O=C(O)C1OC(Oc2cc(-c3oc4cc(O)ccc4c(=O)c3O)ccc2O)C(O)C(O)C1O (centres unmarked) | MDCKII-UGT1A1/MRP2 cells | glucuronide efflux, substrate | – | – | Jmax | 15.2 ± 1.06 pmol/mg/min
